Measured values collected from several papers.
Parts stem from different laboratories: compare values within a part only.

Study 1
Target: Histone acetyltransferase KAT6A, both winged helices, GST fusion (KAT6A, Homo sapiens, UniProt Q92794, residues 1-181)
Method: protein binding microarray
Molecule type: double-stranded DNA, one strand shown
Matrix: in vitro
Concentration: not given
Notes: 8-mer, flanks averaged, mean of 2 arrays, mostly near background
Baseline: not given
Direction: higher = stronger binding
Construct (chain): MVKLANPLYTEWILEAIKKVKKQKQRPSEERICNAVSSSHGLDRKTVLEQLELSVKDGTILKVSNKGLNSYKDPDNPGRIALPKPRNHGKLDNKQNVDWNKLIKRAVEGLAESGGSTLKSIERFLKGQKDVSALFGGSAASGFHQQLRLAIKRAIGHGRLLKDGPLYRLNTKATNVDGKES
For `CATAATAG`, the E-score was 0.0527.
With `CCATTCCA` the E-score was -0.0851.
`CTGTGCCA` gave an E-score of -0.152.
The E-score of `GCCCGCCC` is reported as 0.347.
With `GCCCGCAC` the E-score was 0.196.
With `CCGTCGTA` the E-score was 0.163.
With `GCACGCGA` the E-score was 0.22.
The E-score of `CGAGCTTA` is reported as -0.101.
`AGTTACAC` has an E-score of 0.00722.

Study 2
Target: Interferon regulatory factor 5, full length, phosphomimetic (IRF5, Homo sapiens, UniProt Q13568-2, residues 1-514, K96S/S451D/S453D/S456D/S462D)
Method: protein-binding microarray
Molecule type: double-stranded DNA, one strand shown
Matrix: in vitro
Concentration: 250 nM
Notes: 60-bp whole probe
With: salmon DNA 0.4 mg/ml
Baseline: random background probes
Direction: higher = stronger binding
For `GCCTAGCACTTAGGTCTCCTTCTCCTGTAGTGCTAGGTCTTGATTCGCTTGACGCTGCTG`, the log fluorescence was -0.124 z-score.
`GCCTAGCACTCATCCATGTGTTTAAAACTGTGCTAGGTCTTGATTCGCTTGACGCTGCTG` has a log fluorescence of 0.374 z-score.
With `GCCTAGCACTCAACATTGTGCAATCTTACTGTGCTAGTCTTGATTCGCTTGACGCTGCTG` the log fluorescence was 0.461 z-score.
`GCCTAGCACCCTTTTATGGTTTTTTTTTAGTGCTAGGTCTTGATTCGCTTGACGCTGCTG` gave a log fluorescence of 0.687 z-score.

Study 3
Target: PABPC1L2, full length, GST fusion (mouse, UniProt A0ABA7IW68)
Method: RNAcompete
Molecule type: RNA
Matrix: in vitro
Concentration: 20 nM
Notes: 7-mer, probes averaged, single round
Baseline: mean of 7-mers
Direction: higher = stronger binding
Construct (chain): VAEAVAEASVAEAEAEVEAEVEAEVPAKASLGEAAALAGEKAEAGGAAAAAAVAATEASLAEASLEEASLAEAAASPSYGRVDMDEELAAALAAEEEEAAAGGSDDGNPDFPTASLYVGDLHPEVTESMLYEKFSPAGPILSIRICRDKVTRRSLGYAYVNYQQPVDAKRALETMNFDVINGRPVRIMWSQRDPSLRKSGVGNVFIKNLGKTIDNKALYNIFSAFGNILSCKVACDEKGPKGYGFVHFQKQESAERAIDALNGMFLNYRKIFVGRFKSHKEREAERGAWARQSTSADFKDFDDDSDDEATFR
`CUGGAAG` gave a 7-mer Z-score of 0.191.
`CUCGGUC` has a 7-mer Z-score of -0.358.
With `ACGCAGU` the 7-mer Z-score was -0.0863.
For `UUGUGCA`, the 7-mer Z-score was -0.307.

Other studies, line by line
For `PhoQ, residues 284 288 289 292 302 303 AGGLSV`, the fold induction was 15.1 (PhoP, residues 12 14 15 18 19 LHHSG (Escherichia coli, UniProt P23836); Sort-seq, item: YFP reporter; E. coli; PhoQ-PhoP variant library, with: 10 µM Mg2+; baseline: high Mg2+ state, higher = stronger signaling).

Excerpt of the above (study 2):
With `GCCTAGCACTCAACATTGTGCAATCTTACTGTGCTAGTCTTGATTCGCTTGACGCTGCTG` the log fluorescence was 0.461 z-score.
